{"data": "Measured values from different studies", "note": "Compare with care: the assays were run in different laboratories."}
{"SMILES": "CC(C)n1c(Nc2cccnc2)nc2cnc(Nc3ccc(N4CCN(C)CC4)cc3)nc21", "assay": "refers to: Hyperuricemia", "test system": "healthy male subjects", "conditions": "oral, 150 mg, together with: rifampin", "adverse event incidence": "0%"}
{"SMILES": "Cc1c(C(=O)O)ccc2c3n(nc12)[C@@H]1[C@H](C3)N(CC2CC2)[C@@]2(C(=O)Nc3cc(Cl)ccc32)[C@H]1c1cccc(Cl)c1F", "assay": "phase Ia trial, refers to: Thrombocytopenia", "test system": "cancer patients", "conditions": "oral, dose not given, all patients grade ≥3", "adverse event incidence": "27.8%"}
{"SMILES": "CC[C@H](C)CCCCC(=O)N[C@@H](CCN)C(=O)N[C@H](C(=O)N[C@@H](CCN)C(=O)N[C@H]1CCNC(=O)[C@H]([C@@H](C)O)NC(=O)[C@H](CCN)NC(=O)[C@H](CCN)NC(=O)[C@H](CC(C)C)NC(=O)[C@@H](Cc2ccccc2)NC(=O)[C@H](CCN)NC1=O)[C@@H](C)O", "assay": "refers to: dry mouth", "test system": "mild renal insufficiency", "conditions": "intravenous, 0.75 mg/kg", "adverse event incidence": "14.3%"}
{"SMILES": "CNC(=O)c1ccc(-c2cnc3ncc(Cc4ccc5ncccc5c4)n3n2)cc1F", "assay": "phase 1 clinical trial, refers to: blood creatinine increased", "test system": "gastric cancer expansion cohort", "conditions": "oral, 600 mg twice daily, grade 3 or 4", "adverse event incidence": "0%"}
{"SMILES": "NCCONC(=O)[C@@H]1CC[C@@H]2CN1C(=O)N2OS(=O)(=O)O", "assay": "refers to: Severe severity", "test system": "healthy Chinese men", "conditions": "intravenous, 2 g, treatment-related", "adverse event incidence": "0%"}
{"SMILES": "CC(=O)O[C@H]1C(=O)[C@@]2(C)[C@H]([C@H](OC(=O)c3ccccc3)[C@]3(O)C[C@H](OC(=O)[C@H](O)[C@@H](NC(=O)c4ccccc4)c4ccccc4)C(C)=C1C3(C)C)[C@]1(OC(C)=O)CO[C@@H]1C[C@@H]2O", "assay": "refers to: decreased appetite", "test system": "patients with advanced solid tumours", "conditions": "intravenous, dose not given, grade 1 and 2, possibly related to drug", "adverse event incidence": "31%"}
{"SMILES": "O=C1CCc2ccc(OCCCCN3CCN(c4cccc(Cl)c4Cl)CC3)cc2N1", "assay": "refers to: Akathisia", "test system": "genotyped patients, CYP2D6 poor metabolizers", "conditions": "dose not given, long-acting oral or depot", "adverse event incidence": "0%"}
{"SMILES": "Cc1ccc(Sc2ccccc2N2CCNCC2)c(C)c1", "test system": "healthy adult men", "conditions": "oral, 40 mg single dose, 10 days", "adverse event incidence": "0%"}
